Measured values pooled from the literature.
Each line is one published result; not all experiments were run side by side.
Read-out: metabolic stability

SMILES	species	matrix	concentration	pH	half-life
O=C(Nc1cc(-c2ccnc3[nH]ccc23)c(Cl)cn1)[C@H]1CCC[C@@H](NC(=O)C(F)(F)F)C1	mouse	liver microsomes	–	–	21.6 min
Cc1c(Cc2cccc(OC(C)(C)C(=O)O)c2)c2ccc(C(=O)N[C@@H](C)c3cccc(C(C)(C)C)c3)cc2n1CC1CCC1	mouse	liver microsomes	–	–	> 60 min
CC(C)n1ncc2c(C(=O)NCC3CCN3)cc(C3CC3)nc21 (centres unmarked)	mouse	liver microsomes	–	–	23.4 min
CNC(=O)C1CCCN(C(=O)C2CC3CCC2N3C(=O)[C@@H]2C[C@@H](O)CN2C(=O)NCc2cccc(Cl)c2F)C1 (mixture of isomers)	mouse	liver microsomes	–	–	134 min
Cc1ncsc1-c1ccc(CNC(=O)[C@@H]2C[C@@H](O)CN2C(=O)[C@@H](NC(=O)COCCOCCOCCNC(=O)C[C@@H]2N=C(c3ccc(Cl)cc3)c3c(sc(C)c3C)-n3c(C)nnc32)C(C)(C)C)cc1	mouse	liver microsomes	1 µM	–	5.2 min
C[C@@H]1NC(=O)[C@H](CCCCN)NC(=O)[C@H](CCCNC(=N)N)NC(=O)[C@H](Cc2ccccc2)NC(=O)[C@H](CCCCN)NC(=O)CC/C=C/CCC(=O)NCCCC[C@@H](C(N)=O)NC(=O)[C@H](Cc2ccccc2)NC(=O)[C@H](Cc2ccccc2)NC(=O)[C@H](CCCNC(=N)N)NC(=O)[C@H](CCCCN)NC(=O)[C@H](Cc2ccccc2)NC1=O	male CD-1 mouse	liver microsomes	3.1 µM	pH 7.4	> 120 min
CC(C)(O)Cn1nc(-c2ccccc2)c2c(Cl)c(-c3ccccc3)nnc21	mouse	liver microsomes	1 µM	–	5 min
Cc1c(Cc2ccc(Cl)c(O[C@@H](C)C(=O)O)c2)c2ccc(C(=O)N[C@@H](C)c3ccc(C(C)(C)C)cc3)cc2n1CC1CCC1	mouse	liver microsomes	–	–	> 60 min
CNCCNC(=O)c1cc(C2CC2)nc2c1cnn2C(C)C	mouse	liver microsomes	–	–	12.2 min
C/C(N)=N/C(=N\S(=O)(=O)c1ccc(C(F)(F)F)cc1)N1C[C@H](c2ccccc2)C(c2ccc(Cl)cc2)=N1	mouse	liver microsomes	–	–	73.5 min
Cc1c(Cc2ccc(Cl)c(O[C@H](C)C(=O)O)c2)c2ccc(C(=O)N[C@@H](C)c3ccc(C(C)(C)C)cc3)cc2n1C	mouse	liver microsomes	–	–	42 min
C#CCCCC(F)/C=C/C(=O)NC1(c2ccc(-c3nc4ccn5c(=O)[nH]nc5c4cc3-c3ccccc3)cc2)CCC1 (centres unmarked)	CD-1 mouse	liver microsomes	1 µM	pH 7.4	15.4 min
CCc1cccc([C@H](C)NC(=O)c2ccc3c(Cc4cccc(OC(C)(C)C(=O)O)c4)c(C)n(C)c3c2)c1	mouse	liver microsomes	–	–	54 min
O=C(c1ccc(-c2cc3nccc(-c4ccc5cnccc5c4)c3o2)cc1)N1CCNCC1	mouse	liver microsomes	–	–	7.7 min
C/C(=N\OCCN(C)Cc1ccccc1)c1ccc(C(F)(F)F)cc1	mouse	liver microsomes	–	–	1.98 min
Cc1c(Cc2ccc(Cl)c(OC(C)C(=O)O)c2)c2ccc(C(=O)NC(C)c3ccc(C(C)(C)C)cc3)cc2n1CC1CC1 (centres unmarked)	mouse	liver microsomes	–	–	> 60 min
C=CC(=O)N1CCCC(n2c(=O)c3ncccc3n(Cc3ccc(Oc4ccccc4)cc3)c2=O)C1 (centres unmarked)	male CD-1 mouse	hepatocytes	1 µM	–	8.3 min
Cc1c(Cc2cccc(OC(C)(C)C(=O)O)c2)c2ccc(C(=O)N[C@@H](C)c3cccc(C(C)(C)C)c3)cc2n1CC(C)(C)C	mouse	liver microsomes	–	–	12.3 min
CC(C)n1ncc2c(C(=O)NCC3CNC3)cc(C3CC3)nc21	mouse	liver microsomes	–	–	> 145 min
Cc1c(Cc2cc(F)cc(OC(C)(C)C(=O)O)c2)c2ccc(C(=O)N[C@@H](C)c3cc(F)cc(C(C)(C)C)c3)cc2n1CC1CCC1	mouse	liver microsomes	–	–	12 min
O=c1c2ccccc2[se]n1CCCCCCn1[se]c2ccccc2c1=O	mouse	liver microsomes	5 µM	pH 7.4	37.2 min
COc1ccc(CSc2ncccn2)cc1OS(=O)(=O)c1ccc([N+](=O)[O-])cc1	mouse	liver microsomes	–	–	5 min
N=C(NCC[C@H](NC(=O)c1noc(-c2cc(F)ccc2F)n1)c1nc2ccccc2[nH]1)c1ccc([N+](=O)[O-])o1	mouse	liver microsomes	1 µM	–	2.2 min
Cc1c(Cc2cccc(OC(C)(C)C(=O)O)c2)c2ccc(C(=O)N[C@@H](C)c3ccc(F)c(C(C)(C)C)c3)cc2n1CC(C)C	mouse	liver microsomes	–	–	> 60 min
Cc1nc2ccc(S(=O)(=O)n3nc(SCc4ccc(Cl)cc4)nc3N)cc2s1	mouse	liver microsomes	1 µM	pH 7.4	2.3 min
CC(C)n1ncc2c(C(=O)NC[C@@H](C)N)cc(C3CC3)nc21	mouse	liver microsomes	–	–	> 145 min
Cc1sc2c(c1C)C(c1ccc(Cl)cc1)=N[C@@H](CC(=O)NCCCCCCCCC(=O)N1CCN(C(=O)c3cc(Cc4n[nH]c(=O)c5ccccc45)ccc3F)CC1)c1nnc(C)n1-2	mouse	liver microsomes	–	–	2.3 min
CC(C)n1ncc2c(C(=O)NCCN)cc(C3CC3)nc21	mouse	liver microsomes	–	–	> 145 min
O=c1c(-c2cnn(-c3ccccc3)c2)c(C(F)(F)F)oc2c(O)c(O)ccc12	mouse	liver microsomes	–	–	11 min
